Measurements collected from several papers.
Each line is one published result; not all experiments were run side by side.
Target: Ephrin type-A receptor 8 (EPHA8, Homo sapiens, UniProt P29322)

`CCn1cc(C(=O)O)c(=O)c2c(N)c(F)c(NC3CCCCC3)cc21` has an inhibition of 2.9% (kinase activity; 0.1 µM, added: ATP at Km).
`COc1c(Cl)cccc1Nc1c(-c2ccncc2C#C[C@@]2(C)CCCN2C(=O)/C=C/CN(C)C)[nH]c2c1C(=O)NCC2` has a remaining binding of 87% (cell-free assay, competition with immobilised ligand; 3 µM).
`CNC1C[S+]2CC[S+]3CC[S+](C1)[Ru-4]321([N]=C=S)[n]2c3ccc(OC)cc3c3c4c(c5cc(F)c[n+]1c5c32)C(=O)NC4=O` (stereo not drawn) gave a remaining binding of 100% (KinomeScan; 0.1 µM; baseline: untreated).
With `NC(=O)[C@@H](O)C[C@H]1CCc2sc3ncnc(O[C@H]4CC[C@H](N5CCOCC5)CC4)c3c21` the inhibition was 21% (enzyme activity, inhibitor; 10 µM).
The inhibition of `Cc1nc2c(F)cc(-c3nc(Nc4ccc(CNC(=O)CCCCCCC(=O)NO)cc4)ncc3F)cc2n1C(C)C` is reported as 52% (enzyme activity, inhibitor; 1 µM).
For `COc1cc(Nc2nccc(-c3cnn4nc(OC)ccc34)n2)cc(C(F)(F)F)c1`, the remaining binding was 100% (binding, competition with immobilised ligand; 1 µM).
The inhibition of `C=CC(=O)N1Cc2nc(-c3cc(-c4cc(Cl)cnc4Cl)c(F)cc3F)n(-c3ccncn3)c2C1` is reported as 15.9% (cell-free assay; 1 µM).
`Nc1ncc2c(n1)-c1c([nH]c3ccc(C4=CCOCC4)cc13)CCC2` has a remaining binding of 100% (binding, competition with immobilised ligand; 1 µM).
The inhibition of `CN1CCN(Cc2ccc(-c3ccc(CO[C@H]4CCC[C@@H]4NC(=O)c4cc(-c5cnn(C)c5)cnc4N)cc3)cc2)CC1` is reported as -4% (enzyme activity, inhibitor; 0.1 µM).
The remaining activity of `Nc1ncc(-c2cc(-c3cnn(CC(F)(F)F)c3)ncc2F)nc1C(=O)NC1CNCC(F)C1` (stereo not drawn) is reported as 99% (enzyme activity; 1 µM; baseline: DMSO control).
`O=C(Nc1ccc(Oc2ncnc3[nH]cc(-c4ccccc4)c23)c(F)c1)c1c2n(n(-c3cc(F)ccc3F)c1=O)CCCC2` has an inhibition of -12% (enzyme activity, inhibitor; 0.5 µM).
`O=C(Cc1ccc(OCc2ccccc2)cc1)NC1(C(=O)O)CCN(C(=O)c2ccc(-c3cccc(Cl)c3)cc2)CC1`: “activity vs control” 101% (enzyme activity, inhibitor; 10 µM).
For `Cc1cnc2nc1Nc1cccc(c1)COC/C=C/COCc1cc(ccc1OCCN1CCOCC1)N2`, the remaining binding was 97% (binding; 0.1 µM).
`Cc1cccc(O[C@H]2CCC[C@@H](C(C)CNCc3ccncc3)C2)c1` (relative stereo) has an inhibition of -4% (cell-free assay; 10 µM).
`C=CC(=O)Nc1cccc(-c2cnc3[nH]cc(C(=O)NC(C)(C)C)c3n2)c1` has an inhibition of 5% (enzyme activity, inhibitor; 0.1 µM).
